Measured values gathered from unrelated publications.
Protocols differ between the studies behind these lines. “And” joins repeats or separate records; there may be more than shown. In brackets after ≈: the same amount, converted by molar mass.

The inhibition of `CCCSc1nc(N[C@@H]2C[C@H]2c2ccc(F)c(F)c2)c2nnn([C@@H]3C[C@H](OCCO)[C@@H](O)[C@H]3O)c2n1` is reported as 39.3% (Nedd8-cullin1 interaction; neddylation, AlphaScreen; 100 µM).
The Km of `O=C(O)O` is reported as greater than 20 mM (sulfate/chloride exchanger, human; neutrophils; external binding site).
For `CC[C@@H]1[C@H](F)C(=O)N[C@@H]1COc1nccc2cc(C(N)=O)c(OC)cc12`, the inhibition was -1.3% (Aurora A, B and C; ATP-site probe binding, inhibitor, ActivX ATP probe profiling; THP-1 cell lysate; 0.04 mM, ATP loop site).
With `O=C(NN=Cc1ccc(C[n+]2ccccc2)cc1)c1ccc2ccc3ccc(C(=O)NN=Cc4ccc(C[n+]5ccccc5)cc4)nc3c2n1.[Br-].[Br-]` the ΔTm was 0.1 °C (hairpin duplex DNA; UV melting; 1 molar equivalents, DNA 3 µM).
With `CCOc1nc2cccc(C(=O)O)c2n1Cc1ccc(-c2ccccc2-c2nc(=O)o[nH]2)cc1` the inhibition was -43.5% (Nedd8-cullin1 interaction; neddylation, AlphaScreen; 100 µM).
`N#Cc1ccn2c(-c3ccncc3)c(-c3ccc(F)cc3)nc2c1`: “log2 fold change” -0.222 (Pom1 kinase Candida albicans; MIB/MS competition binding; Candida albicans cell lysate; 100 nM; baseline: DMSO, lower = stronger binding).
`Cc1cc(C(=O)NOCCO)c(Nc2ccc(I)cc2F)n(C)c1=O` gave a kynurenine production of 16% (TDO2 human; inhibitor; A-172; 1 µM).
The Km of `O=C(O)[C@H]1OC(O)[C@H](O)[C@@H](O)[C@@H]1O` (mixture of isomers) is reported as greater than 20 mM (sulfate/chloride exchanger, human; neutrophils; external binding site).
With `CCCCc1nc(Cl)c(CO)n1Cc1ccc(-c2ccccc2-c2nn[nH]n2)cc1` the inhibition was 75.1% (Nedd8-cullin1 interaction; neddylation, AlphaScreen; 100 µM).
`C[n+]1cccc2cc(C=NNC(=O)c3ccc4ccc5ccc(C(=O)NN=Cc6ccc7c(ccc[n+]7C)c6)nc5c4n3)ccc21.[I-].[I-]` gave a ΔTm of 0.9 °C (hairpin duplex DNA; UV melting; 1 molar equivalents, DNA 3 µM).
`Cn1c(=O)c(F)c(Nc2ccc(I)cc2F)c2c(=O)n(C[C@@H](O)CO)cnc21` has a kynurenine production of 9.5% (TDO2 human; inhibitor; A-172; 1 µM).
`N=C(N)NCCCN(CCCN)C[C@H]1O[C@@H](n2cnc3c(N)ncnc32)[C@H](O)[C@@H]1O` has a relative IC50 of 14.4 (PRMT1; enzyme activity, inhibitor; baseline: SAH IC50 over compound IC50).
`C[N+](C)(C)Cc1cccc(N=Nc2cccc(C[N+](C)(C)C)c2)c1` has a rate constant of 3.2 s⁻¹ (muscarinic potassium conductance, frog; ion current, photoswitch; atrial trabeculae; 20 µM, flash photoisomerization, cis to trans, 80% cis, added: carbachol 5 µM).
`CCC(C)CNCC(=O)N1CCc2sccc2C1COc1cccc(C)c1` (centres unmarked) — result for myristoylation: “inactive” (c-Src; inhibitor; cells, COS-1, expressing c-Src; concentration not given).
`COc1ccc([C@@H]2Sc3ccccc3N(CCN(C)C)C(=O)[C@@H]2OC(C)=O)cc1` has an inhibition of -8.4% (Nedd8-cullin1 interaction; neddylation, AlphaScreen; 100 µM).
With `CCOC(=O)c1cc(Cl)cc(NC(=O)c2sc(Cl)cc2S(=O)(=O)N(C)c2ccc(OCC)c(OC)c2)c1` the EC50 was greater than 25 µM (nuclear hormone receptors; binding).
For `CCCC(=O)Nc1ccc(OCC(O)CNC(C)C)c(C(C)=O)c1` (centres unmarked), the inhibition was 7.2% (Nedd8-cullin1 interaction; neddylation, AlphaScreen; 100 µM).
With `O=C(O)C(=O)O` the Km was 6.4 mM (sulfate/chloride exchanger, human; neutrophils; external binding site).
Under “cells with nuclear reporter”, `CC(Nc1nc(N2CCCC2)nc2ccccc12)c1ccccc1` (centres unmarked) is recorded as 98.9% (transportin-1/2; FUS nuclear import, high content imaging; HeLa Kyoto reporter; 31.65 µM, 2 h).
`COc1nnc2ccc(N3CCC(c4ccc(OCCN5CCN(C)C(=O)[C@H]5C)cc4)CC3)nn12` — result for “dose with strong target engagement”: no less than 10 mg (BRD4 (human); qPCR, refers to: BRD4 target genes; cancer patients, peripheral blood).
`[O]=[W](=[O])([OH])[OH]` gave a Ki of 1190 µM and 1200 µM (sulfate/chloride exchanger, human; sulfate influx, inhibitor; neutrophils; external site, added: 2 µM nigericin, 85 mM K+).
Under “log2 fold change”, `c1ccc(-c2n[nH]cc2-c2ccnc3ccccc23)nc1` is recorded as 0.0983 (Pom1 kinase Candida albicans; MIB/MS competition binding; Candida albicans cell lysate; 10 µM; baseline: DMSO, lower = stronger binding).
For `COc1cc(C(C)=O)ccc1OCCCN1CCC(c2noc3cc(F)ccc23)CC1`, the inhibition was 24.7% (Nedd8-cullin1 interaction; neddylation, AlphaScreen; 100 µM).
The Ki of `[Br-].[K+]` is reported as 43600 µM (sulfate/chloride exchanger, human; sulfate influx, inhibitor; neutrophils; external site, added: 2 µM nigericin, 85 mM K+).
`CCc1ccc(NC(=O)Nc2c[nH]c3ccccc23)cc1` — result for pIRF3 inhibition: “inhibited” (STING (mouse); inhibitor; HEK293T expressing mouse STING; 5 µM, 2 h, added: 100 µM cGAMP).
Under “log2 fold change”, `Oc1ccccc1-c1n[nH]cc1-c1ccnc2ccccc12` is recorded as 0.11 (orf19.4144 Candida albicans; kinase binding, MIB/MS competition; Candida albicans lysate; 1 µM; baseline: DMSO).
`Cc1c(CN2CCN(C(=O)[C@H](C)O)CC2)sc2c(N3CCOCC3)nc(-c3cnc(N)nc3)nc12` has an IC50 of 9.3 ng/mL (≈ 0.0187 µM) (phospho-Akt; Akt phosphorylation, inhibitor; human patients with epithelioid mesothelioma, plasma; PK-PD study).
`Cc1n[nH]c2ccc(-c3cc(OC[C@@H](N)Cc4ccccc4)cnc3-c3ccoc3)cc12`: “log2 fold change” -2.53 (Pom1 kinase Candida albicans; MIB/MS competition binding; Candida albicans cell lysate; 10 µM; baseline: DMSO, lower = stronger binding).
`O=P(O)(O)O[C@@H]1[C@H](O)[C@H](O)[C@@H](OP(=O)(O)O)[C@H](OP(=O)(O)O)[C@H]1O` gave an EC50 of 3.57 µM (IP3 receptor; Ca2+ release, agonist; MEF BI-1-/- (empty vector) permeabilized).
`C#Cc1cc(-c2cc(Nc3nc(N[C@@H](C)c4ccc(F)cn4)ncc3Cl)n[nH]2)ccc1C=O` — result for “number of kinase hits”: 37 (panel of 416 human kinases; kinase activity; 200 nM, hit threshold 10).
`COc1cc(Nc2ncc3c(n2)-c2ccc(Cl)cc2C(c2c(F)cccc2OC)=NC3)ccc1C(=O)NCCOCCOCCNC(=O)COc1cccc2c1C(=O)N(C1CCC(=O)NC1=O)C2=O` (centres unmarked) has an EC50 of greater than 30 µM (human EIF3J; binding, kinobead competition; MV4-11 cell lysate).
Under “log2 fold change”, `c1coc(-c2n[nH]cc2-c2ccnc3ccccc23)c1` is recorded as -0.27 (orf19.4144 Candida albicans; kinase binding, MIB/MS competition; Candida albicans lysate; 1 µM; baseline: DMSO).
The Ki of `[O]=[Mo](=[O])([OH])[OH]` is reported as 52700 µM (sulfate/chloride exchanger, human; sulfate influx, inhibitor; neutrophils; external site, added: 2 µM nigericin, 85 mM K+).
`N#Cc1ccc2c(-c3ccncc3)c(-c3ccc(F)cc3)nn2c1`: “log2 fold change” -0.426 (Pom1 kinase Candida albicans; MIB/MS competition binding; Candida albicans cell lysate; 1 µM; baseline: DMSO, lower = stronger binding).
For `C[C@H](CCC(=O)O)[C@H]1CC[C@H]2[C@@H]3C[C@H](O)[C@@H]4C[C@H](O)CC[C@]4(C)[C@H]3CC[C@]12C`, the inhibition was -34.9% (Nedd8-cullin1 interaction; neddylation, AlphaScreen; 100 µM).
`[Ca+2]`: “desensitization time constant” 174 s and 101 s and 48 s and 176 s and 117 s and 331 s (human TRPA1 W1103A; ion current, two-electrode voltage clamp; Xenopus oocytes; -80 mV, added: AITC).
The Km of `O=CO` is reported as 71.2 mM (sulfate/chloride exchanger, human; neutrophils; external binding site).
`CNCCc1ccccn1` has an inhibition of 24.5% (Nedd8-cullin1 interaction; neddylation, AlphaScreen; 100 µM).

Repeated from above:
`C#Cc1cc(-c2cc(Nc3nc(N[C@@H](C)c4ccc(F)cn4)ncc3Cl)n[nH]2)ccc1C=O` — result for “number of kinase hits”: 37 (panel of 416 human kinases; kinase activity; 200 nM, hit threshold 10).
`COc1cc(Nc2ncc3c(n2)-c2ccc(Cl)cc2C(c2c(F)cccc2OC)=NC3)ccc1C(=O)NCCOCCOCCNC(=O)COc1cccc2c1C(=O)N(C1CCC(=O)NC1=O)C2=O` (centres unmarked) has an EC50 of greater than 30 µM (human EIF3J; binding, kinobead competition; MV4-11 cell lysate).
Under “log2 fold change”, `c1coc(-c2n[nH]cc2-c2ccnc3ccccc23)c1` is recorded as -0.27 (orf19.4144 Candida albicans; kinase binding, MIB/MS competition; Candida albicans lysate; 1 µM; baseline: DMSO).
